Assay results pooled from the literature.
Numbered parts are unrelated; each lists some results of a single study.

Block 1
Target: Histone acetyltransferase KAT6A, both winged helices, GST fusion (KAT6A, Homo sapiens, UniProt Q92794, residues 1-181)
Technique: protein binding microarray
Form: double-stranded DNA, one strand shown
Medium: in vitro
Tested at: not given
Setting: 8-mer, flanks averaged, mean of 2 arrays, mostly near background
Relative to: not given
Direction: higher = stronger binding
Construct (chain): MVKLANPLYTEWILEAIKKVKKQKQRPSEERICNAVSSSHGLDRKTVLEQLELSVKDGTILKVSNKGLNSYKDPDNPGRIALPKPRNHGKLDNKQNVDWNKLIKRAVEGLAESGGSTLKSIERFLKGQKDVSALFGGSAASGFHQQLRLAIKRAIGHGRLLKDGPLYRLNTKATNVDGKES
Strand | E-score
CAAAAGCA | -0.115
CCTTATAA | -0.0027
CCTCAACC | -0.148
AATTAATT | -0.1

Block 2
Target: Centromere-binding protein 1, full length, N-terminal tag (CBF1, Saccharomyces cerevisiae, UniProt P17106, residues 1-351)
UniProt P17106, sequence (whole entry, looked up): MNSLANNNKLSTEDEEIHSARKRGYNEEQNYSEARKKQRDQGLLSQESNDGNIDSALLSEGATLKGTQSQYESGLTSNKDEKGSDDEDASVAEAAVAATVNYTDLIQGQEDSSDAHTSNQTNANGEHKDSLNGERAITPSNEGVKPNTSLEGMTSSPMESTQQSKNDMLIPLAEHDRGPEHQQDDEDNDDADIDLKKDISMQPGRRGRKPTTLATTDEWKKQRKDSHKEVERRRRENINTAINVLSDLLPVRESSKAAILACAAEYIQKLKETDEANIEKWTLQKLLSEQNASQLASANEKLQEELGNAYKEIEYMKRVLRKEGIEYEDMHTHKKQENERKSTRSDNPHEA
Technique: protein-binding microarray
Form: double-stranded DNA, one strand shown
Medium: in vitro
Tested at: 0.8 µM
Setting: whole 60-bp probe, no competitor
Direction: higher = stronger binding
Shared flanks, not repeated: … GTCTTGATTCGCTTGACGCTGCTG
Strand | fluorescence intensity
GAATGGAATACCAGTTTAATCACGATCAGAAATTAG | 684 a.u.
GAACTAAGGTTTGAAAACACCACGCAGCATTACTAG | 565 a.u.
GAACATAGCATGCGGCTGATGTCAGATTTCGAATAG | 520 a.u.
CTAGATATCCCTGGTCACCTTACTATCTTCCAATTC | 620 a.u.
GAATTAAACTAGAGTGATGTTACTCGACTTCCTTAG | 479 a.u.
CTAAGCAGATTTGATTAGGTGATGAGACAAATATTC | 524 a.u.
GAAGAACGTTCGTGCGGGGTGATGGTTAGAAAGTAG | 575 a.u.

Block 3
Target: Interferon regulatory factor 7, full length, phosphomimetic (IRF7, Homo sapiens, UniProt Q92985, residues 1-503, S101K/S471D/S472D/S475D/S476D/S477D/S483D/S484D/S487D)
Technique: protein-binding microarray
Form: double-stranded DNA, one strand shown
Medium: in vitro
Tested at: 250 nM
Setting: 60-bp whole probe
Together with: salmon DNA 0.4 mg/ml
Relative to: random background probes
Direction: higher = stronger binding
Shared flanks, not repeated: GCCTAGCAC … GTGCTAGGTCTTGATTCGCTTGACGCTGCTG
Target sequence (chain): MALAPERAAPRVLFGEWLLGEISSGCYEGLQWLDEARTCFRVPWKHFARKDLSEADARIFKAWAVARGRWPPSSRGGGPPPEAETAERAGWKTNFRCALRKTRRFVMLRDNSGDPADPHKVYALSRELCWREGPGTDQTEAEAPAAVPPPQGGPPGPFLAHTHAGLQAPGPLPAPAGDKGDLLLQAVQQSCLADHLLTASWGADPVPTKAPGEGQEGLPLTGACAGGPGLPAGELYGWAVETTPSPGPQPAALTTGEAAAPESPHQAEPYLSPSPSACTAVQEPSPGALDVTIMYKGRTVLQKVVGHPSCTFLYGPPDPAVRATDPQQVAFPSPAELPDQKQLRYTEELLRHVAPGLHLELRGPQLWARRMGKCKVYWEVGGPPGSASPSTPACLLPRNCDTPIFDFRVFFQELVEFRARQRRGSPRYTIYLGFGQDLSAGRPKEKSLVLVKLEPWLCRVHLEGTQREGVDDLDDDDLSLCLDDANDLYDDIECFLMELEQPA
Strand | log fluorescence [z-score]
GACGGTCTCGGTATCGGGAT | 2.01
TCAGCTTTGCTTCCTGCACT | -0.512
TTAGGACGGCTACTGCTTTA | -0.612
CAGGTTCTCTTTTATTTTTT | 3.34
TCATTTCTACTTCTGTTACT | 2.11

Other studies, line by line
Substance | target | assay | system | conditions | scale | endpoint | result
PhoQ, residues 284 288 289 292 302 303 ASTSDA | PhoP, residues 12 14 15 18 19 SGWQI (Escherichia coli, UniProt P23836) | Sort-seq, item: YFP reporter | E. coli | PhoQ-PhoP variant library, together with: 10 µM Mg2+ | relative to: high Mg2+ state, higher = stronger signaling | fold induction | 1.47

A few entries again (block 2):
Strand | fluorescence intensity
GAACATAGCATGCGGCTGATGTCAGATTTCGAATAG | 520 a.u.
